Experimental data from different studies.
Every numbered part comes from another study and shows a few of its results, in no order. Several values in a cell are separate wells, animals, samples, runs or records.
Chain of UniProt P61075 (whole entry, looked up): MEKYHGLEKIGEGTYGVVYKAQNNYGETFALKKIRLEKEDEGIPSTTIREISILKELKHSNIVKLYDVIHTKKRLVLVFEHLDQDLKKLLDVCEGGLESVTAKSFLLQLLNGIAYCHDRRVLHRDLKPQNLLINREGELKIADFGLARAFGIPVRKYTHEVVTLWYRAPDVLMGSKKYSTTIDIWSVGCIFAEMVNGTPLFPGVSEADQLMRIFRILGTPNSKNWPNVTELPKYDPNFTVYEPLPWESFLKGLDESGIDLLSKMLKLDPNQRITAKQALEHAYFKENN
Chain of UniProt P9WI81 (whole entry, looked up): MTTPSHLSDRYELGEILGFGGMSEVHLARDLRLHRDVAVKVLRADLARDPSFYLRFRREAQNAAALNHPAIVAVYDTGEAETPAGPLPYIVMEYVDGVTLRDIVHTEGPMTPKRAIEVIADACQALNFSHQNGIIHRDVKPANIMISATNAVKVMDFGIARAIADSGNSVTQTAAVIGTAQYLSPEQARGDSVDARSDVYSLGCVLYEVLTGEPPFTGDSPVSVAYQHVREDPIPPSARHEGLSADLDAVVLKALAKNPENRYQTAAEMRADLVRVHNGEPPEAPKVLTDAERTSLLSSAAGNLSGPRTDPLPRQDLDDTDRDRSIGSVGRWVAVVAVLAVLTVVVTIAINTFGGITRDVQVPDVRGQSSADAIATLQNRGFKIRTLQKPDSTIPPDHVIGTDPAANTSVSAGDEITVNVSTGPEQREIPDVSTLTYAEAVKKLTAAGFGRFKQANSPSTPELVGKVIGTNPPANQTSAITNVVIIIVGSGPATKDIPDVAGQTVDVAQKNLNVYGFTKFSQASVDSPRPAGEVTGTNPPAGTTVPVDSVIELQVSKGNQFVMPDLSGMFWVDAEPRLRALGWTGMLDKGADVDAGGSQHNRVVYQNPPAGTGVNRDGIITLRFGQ
Chain of UniProt Q9BUB5 (whole entry, looked up): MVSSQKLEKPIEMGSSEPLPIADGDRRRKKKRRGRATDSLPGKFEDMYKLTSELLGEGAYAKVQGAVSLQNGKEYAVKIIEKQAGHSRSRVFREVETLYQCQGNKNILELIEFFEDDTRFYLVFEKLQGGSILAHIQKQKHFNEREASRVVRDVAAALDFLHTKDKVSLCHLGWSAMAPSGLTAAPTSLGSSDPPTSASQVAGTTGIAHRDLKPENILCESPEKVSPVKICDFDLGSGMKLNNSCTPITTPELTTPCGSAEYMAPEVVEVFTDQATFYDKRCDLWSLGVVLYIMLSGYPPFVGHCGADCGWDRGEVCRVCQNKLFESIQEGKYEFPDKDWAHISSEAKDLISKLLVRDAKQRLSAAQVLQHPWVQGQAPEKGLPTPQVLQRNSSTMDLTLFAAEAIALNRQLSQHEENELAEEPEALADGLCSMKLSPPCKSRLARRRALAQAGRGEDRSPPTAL
Chain of UniProt Q99720 (whole entry, looked up): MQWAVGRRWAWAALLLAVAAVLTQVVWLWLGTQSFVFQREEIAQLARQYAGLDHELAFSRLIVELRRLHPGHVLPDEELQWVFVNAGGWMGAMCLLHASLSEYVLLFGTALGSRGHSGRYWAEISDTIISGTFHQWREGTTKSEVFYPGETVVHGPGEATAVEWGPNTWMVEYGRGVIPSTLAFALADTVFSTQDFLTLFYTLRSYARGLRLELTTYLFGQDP
Chain of UniProt O43293 (whole entry, looked up): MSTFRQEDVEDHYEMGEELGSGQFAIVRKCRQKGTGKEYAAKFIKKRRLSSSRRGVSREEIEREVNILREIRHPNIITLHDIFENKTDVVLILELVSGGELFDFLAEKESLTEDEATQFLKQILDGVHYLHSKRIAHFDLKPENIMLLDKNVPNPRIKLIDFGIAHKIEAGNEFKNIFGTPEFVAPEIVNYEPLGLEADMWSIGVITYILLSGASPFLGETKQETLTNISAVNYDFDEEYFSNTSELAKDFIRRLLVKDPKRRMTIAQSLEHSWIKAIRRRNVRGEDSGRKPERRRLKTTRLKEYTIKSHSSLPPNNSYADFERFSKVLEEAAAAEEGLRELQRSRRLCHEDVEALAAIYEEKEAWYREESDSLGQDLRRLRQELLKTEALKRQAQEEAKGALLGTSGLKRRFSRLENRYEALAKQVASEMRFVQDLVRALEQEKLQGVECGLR
Chain of UniProt Q9Y6E0 (whole entry, looked up): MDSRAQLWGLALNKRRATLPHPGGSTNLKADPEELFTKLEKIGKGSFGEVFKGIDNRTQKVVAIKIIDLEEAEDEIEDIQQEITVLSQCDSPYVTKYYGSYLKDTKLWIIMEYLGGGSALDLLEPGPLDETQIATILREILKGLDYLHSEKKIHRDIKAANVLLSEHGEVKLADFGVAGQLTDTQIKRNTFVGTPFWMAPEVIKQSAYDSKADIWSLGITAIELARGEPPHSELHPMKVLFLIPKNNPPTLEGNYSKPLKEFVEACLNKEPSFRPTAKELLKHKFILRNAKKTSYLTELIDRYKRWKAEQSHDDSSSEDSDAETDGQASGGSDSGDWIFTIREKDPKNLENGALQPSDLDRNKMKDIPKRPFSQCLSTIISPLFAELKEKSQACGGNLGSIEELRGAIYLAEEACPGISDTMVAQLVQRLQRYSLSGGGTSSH
Chain of UniProt P29597 (whole entry, looked up): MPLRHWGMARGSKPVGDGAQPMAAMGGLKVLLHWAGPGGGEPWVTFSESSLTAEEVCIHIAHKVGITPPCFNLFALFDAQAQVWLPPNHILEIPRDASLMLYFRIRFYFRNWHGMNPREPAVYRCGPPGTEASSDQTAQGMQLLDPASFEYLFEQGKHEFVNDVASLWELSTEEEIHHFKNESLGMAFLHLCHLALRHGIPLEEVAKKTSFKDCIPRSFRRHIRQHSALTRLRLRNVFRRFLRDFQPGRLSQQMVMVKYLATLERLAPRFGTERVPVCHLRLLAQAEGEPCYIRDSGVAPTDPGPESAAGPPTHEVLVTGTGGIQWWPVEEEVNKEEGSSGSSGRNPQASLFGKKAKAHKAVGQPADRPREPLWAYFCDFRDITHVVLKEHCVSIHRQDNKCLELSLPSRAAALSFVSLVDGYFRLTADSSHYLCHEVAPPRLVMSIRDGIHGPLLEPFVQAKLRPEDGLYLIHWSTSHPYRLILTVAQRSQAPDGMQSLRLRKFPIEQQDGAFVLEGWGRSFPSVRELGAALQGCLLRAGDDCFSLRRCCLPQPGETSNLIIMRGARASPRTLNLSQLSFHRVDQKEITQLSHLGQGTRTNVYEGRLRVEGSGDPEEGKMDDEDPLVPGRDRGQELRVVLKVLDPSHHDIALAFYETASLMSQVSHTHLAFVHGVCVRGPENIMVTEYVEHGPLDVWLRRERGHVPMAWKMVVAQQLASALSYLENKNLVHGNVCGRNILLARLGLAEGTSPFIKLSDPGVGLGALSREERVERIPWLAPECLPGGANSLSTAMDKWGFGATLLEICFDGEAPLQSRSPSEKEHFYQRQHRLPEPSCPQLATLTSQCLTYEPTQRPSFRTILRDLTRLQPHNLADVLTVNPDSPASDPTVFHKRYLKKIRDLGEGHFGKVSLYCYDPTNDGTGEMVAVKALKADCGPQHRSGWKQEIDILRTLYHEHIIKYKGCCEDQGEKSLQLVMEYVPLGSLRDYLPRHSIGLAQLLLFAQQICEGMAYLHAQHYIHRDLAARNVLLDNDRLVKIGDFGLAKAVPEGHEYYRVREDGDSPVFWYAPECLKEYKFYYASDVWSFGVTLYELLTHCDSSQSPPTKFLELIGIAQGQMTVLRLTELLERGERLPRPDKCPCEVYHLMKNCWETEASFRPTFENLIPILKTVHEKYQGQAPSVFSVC
Chain of UniProt Q9H093 (whole entry, looked up): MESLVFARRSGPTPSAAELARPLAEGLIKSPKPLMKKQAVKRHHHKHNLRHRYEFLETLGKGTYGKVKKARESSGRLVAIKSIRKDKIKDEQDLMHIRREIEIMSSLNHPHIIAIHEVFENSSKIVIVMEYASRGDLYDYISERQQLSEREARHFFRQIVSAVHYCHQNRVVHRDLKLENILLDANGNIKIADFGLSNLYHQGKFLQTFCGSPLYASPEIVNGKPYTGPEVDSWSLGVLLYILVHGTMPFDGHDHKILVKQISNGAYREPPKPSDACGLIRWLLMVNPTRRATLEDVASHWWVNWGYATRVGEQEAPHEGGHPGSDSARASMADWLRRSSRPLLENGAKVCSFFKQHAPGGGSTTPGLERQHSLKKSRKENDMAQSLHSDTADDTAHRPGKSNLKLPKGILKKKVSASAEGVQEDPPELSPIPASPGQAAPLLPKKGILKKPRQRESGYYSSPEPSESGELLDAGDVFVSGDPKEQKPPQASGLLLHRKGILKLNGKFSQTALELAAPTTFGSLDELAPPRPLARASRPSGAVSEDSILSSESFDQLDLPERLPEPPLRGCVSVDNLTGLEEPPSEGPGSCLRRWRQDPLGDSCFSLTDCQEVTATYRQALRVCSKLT
Chain of UniProt P62344 (whole entry, looked up): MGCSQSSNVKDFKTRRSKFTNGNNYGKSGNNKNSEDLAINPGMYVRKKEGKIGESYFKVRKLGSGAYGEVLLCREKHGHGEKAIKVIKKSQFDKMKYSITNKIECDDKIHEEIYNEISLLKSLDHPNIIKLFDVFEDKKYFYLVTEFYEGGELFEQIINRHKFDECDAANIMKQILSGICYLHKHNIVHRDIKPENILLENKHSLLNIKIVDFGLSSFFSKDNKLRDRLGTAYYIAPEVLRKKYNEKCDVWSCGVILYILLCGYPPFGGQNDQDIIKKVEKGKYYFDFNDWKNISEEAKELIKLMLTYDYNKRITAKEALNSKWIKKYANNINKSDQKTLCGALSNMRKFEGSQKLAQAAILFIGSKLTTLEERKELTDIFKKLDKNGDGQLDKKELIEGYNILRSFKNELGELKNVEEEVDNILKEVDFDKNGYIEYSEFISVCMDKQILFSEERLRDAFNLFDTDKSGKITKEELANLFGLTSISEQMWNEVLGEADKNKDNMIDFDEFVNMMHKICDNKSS

Set 1
Structure (SMILES): CCCCC[C@@H](O)CC(=O)N[C@H]1COC(=O)[C@H](CO)NC(=O)CNC(=O)[C@H]([C@@H](C)O)NC(=O)[C@H](Cc2ccccc2)NC(=O)[C@@H](Cc2c[nH]c3ccccc23)NC(=O)[C@@H]([C@H](C)O)NC(=O)[C@H](CC(N)=O)NC(=O)[C@@H]([C@H](C)O)NC(=O)[C@H](CC(C)C)NC(=O)[C@@H](Cc2c[nH]c3ccccc23)N(C)C(=O)CNC(=O)[C@H](CO)NC(=O)[C@@H](CO)NC1=O
Organism: Staphylococcus aureus
Strain: USA300
Concentration: 2 x MIC
Quantity: viable cells
300 min: 300 CFU/mL and 500 CFU/mL and 400 CFU/mL
120 min: 600 CFU/mL and 700 CFU/mL and 500 CFU/mL
30 min: 2000 CFU/mL and 2400 CFU/mL and 2900 CFU/mL
15 min: 5400 CFU/mL and 5000 CFU/mL and 4400 CFU/mL
240 min: 300 CFU/mL and 500 CFU/mL

Set 2
SMILES: COC[C@H]1OC(=O)c2coc3c2[C@@]1(C)C1=C(C3=O)[C@@H]2CCC(=O)[C@@]2(C)C[C@H]1OC(C)=O
Observed: enzyme activity
Action: inhibitor
Concentration: 0.5 µM
Relative to: control
Quantity: remaining activity
Calcium/calmodulin-dependent protein kinase type II subunit gamma (CAMK2G, Homo sapiens, UniProt Q13555): 86.4%
MAP kinase-activated protein kinase 5 (MAPKAPK5, Homo sapiens, UniProt Q8IW41): 88.3%
Mitogen-activated protein kinase kinase kinase 11 (MAP3K11, Homo sapiens, UniProt Q16584): 97.1%
Receptor tyrosine-protein kinase erbB-4 (ERBB4, Homo sapiens, UniProt Q15303): 83.9%
Non-receptor tyrosine-protein kinase TYK2 (TYK2, Homo sapiens, UniProt P29597): 92.1%
MAP kinase-interacting serine/threonine-protein kinase 1 (MKNK1, Homo sapiens, UniProt Q9BUB5): 107%
NUAK family SNF1-like kinase 2 (NUAK2, Homo sapiens, UniProt Q9H093): 131%
Interleukin-1 receptor-associated kinase 1 (IRAK1, Homo sapiens, UniProt P51617): 119%
Casein kinase I isoform gamma-1 (CSNK1G1, Homo sapiens, UniProt Q9HCP0): 94.6%
Serine/threonine-protein kinase 24 (STK24, Homo sapiens, UniProt Q9Y6E0): 93.1%
Death-associated protein kinase 3 (DAPK3, Homo sapiens, UniProt O43293): 87.5%

Further values, each from its own experiment
C[C@H](c1ccnc(Nc2nc3ccc(-c4cc(N(C)C)ncn4)cc3[nH]2)c1)N1CCN(C(=O)CC(F)(F)F)CC1 — remaining binding (Cyclin-dependent kinase 2 homolog (CRK2, Plasmodium falciparum, UniProt P61075); cell-free assay, competition with immobilised ligand; 0.1 µM): 100%
O=C1NC(=O)c2c1c1c3ccccc3n3c1c1c2c2ccccc2n1[C@@H]1CCC3O1 — inhibition (His6 tag; AlphaScreen counter screen; concentration not given): -25.1%
CC1=C(C#N)[C@@H](c2ccc3[nH]nc(C)c3c2)C(C#N)=C(c2ccc(Cl)cc2)N1 — remaining binding (Serine/threonine-protein kinase PknB (pknB, Mycobacterium tuberculosis, UniProt P9WI81); cell-free assay, competition with immobilised ligand; 1 µM): 100%
CCCCN1C(=O)NC(=O)C(=C(C)Nc2cccc(C(=O)O)c2)C1=O — inhibition (His6 tag; AlphaScreen counter screen; concentration not given): -5.9%
CCS(=O)(=O)c1cc2cc(C[C@](O)(CC(C)(C)c3ccc(F)cc3C(N)=O)C(F)(F)F)[nH]c2cn1 — remaining binding (Calcium-dependent protein kinase 1 (CDPK1, Plasmodium falciparum, UniProt P62344); cell-free assay, competition with immobilised ligand; 1 µM): 100%
CNC(=O)c1cc(C(=O)NC2CC2)cn(Cc2ccccc2)c1=O — inhibition (Sigma non-opioid intracellular receptor 1 (SIGMAR1, Homo sapiens, UniProt Q99720); binding, radioligand binding; 10 µM): -24.2%
